Experimental data pooled from the literature.
Numbered parts are unrelated; each lists some results of a single study. “And” joins repeats or separate records; there may be more than shown. Changes are numbered by the printed parent chain.

Block 1
Cell line: normal organoid sample D
Method: CellTiter-Glo
Host: human
Concentration: 1 µM
Time: 4 days
Reference: DMSO
Compound	viability
C[C@H](NC(=O)c1cnc2n1[C@](C)(Cc1ccc(C#N)cc1)C(=O)N2c1cc(Cl)c(F)c(Cl)c1)C(=O)NC1(c2ccccn2)CC1	102% and 94.8%
C[C@H](c1ccc(F)cc1)N(Cc1cccc(C(=O)O)c1)C(=O)c1cnc2ccccc2c1	88.9% and 106%
C[C@H](c1ccnc(Nc2nc3ccc(-c4cc(N(C)C)ncn4)cc3[nH]2)c1)N1CCN(C(=O)CC(F)(F)F)CC1	94.2% and 81.5%
O=C(Nc1cccnn1)N1CCC(=Cc2cccc(Oc3ccc(C(F)(F)F)cn3)c2)CC1	83% and 95.4%
C[C@@]1(Cc2ccc(C#N)cc2)C(=O)N(c2cc(Cl)cc(Cl)c2)c2ncc(C(=O)NC3(c4nc(C5CCC5)no4)CC3)n21	79.2% and 89.2%
CN(c1ccnc(CNc2nc(Nc3ccc4c(c3)CC(=O)N4)ncc2C(F)(F)F)n1)S(C)(=O)=O	95.1% and 75.9%
NS(=O)(=O)c1cc(NC(=O)Cc2ccccc2)ccc1Oc1cccc(Cl)c1	108% and 85.3%
O=C(O)[C@@H]1[C@@H](Cn2nnc3ccccc3c2=O)CC[C@H]1C(=O)c1ccc(OCCC2CCOCC2)cc1	132% and 122%

Block 2
Target: CCNA2, cyclin fold, Cln2 fusion (human)
Method: yeast growth competition, sequencing
Sample: yeast
Setting: strong parent motif
Reference: not given
Reading: higher = stronger binding
Starting sequence: RBL2 docking peptide (human); STTRRRLFVENDS
Variant	normalised enrichment score
STTRRRLFVEVDS [N11V]	6.14
STTRRRLFVENQS [D12Q]	5.04
STTRRTLFVENDS [R6T]	2.59
STTRRRLFVENDV [S13V]	5.31
SVTRRRLFVENDS [T2V]	5.52
STTPRRLFVENDS [R4P]	0.676
STTRRRLFVENDG [S13G]	5.71
DTTRRRLFVENDS [S1D]	3.8

Block 3
Target: Focal adhesion kinase 1 (PTK2, Homo sapiens, UniProt Q05397)
Chain of UniProt Q05397 (whole entry, looked up): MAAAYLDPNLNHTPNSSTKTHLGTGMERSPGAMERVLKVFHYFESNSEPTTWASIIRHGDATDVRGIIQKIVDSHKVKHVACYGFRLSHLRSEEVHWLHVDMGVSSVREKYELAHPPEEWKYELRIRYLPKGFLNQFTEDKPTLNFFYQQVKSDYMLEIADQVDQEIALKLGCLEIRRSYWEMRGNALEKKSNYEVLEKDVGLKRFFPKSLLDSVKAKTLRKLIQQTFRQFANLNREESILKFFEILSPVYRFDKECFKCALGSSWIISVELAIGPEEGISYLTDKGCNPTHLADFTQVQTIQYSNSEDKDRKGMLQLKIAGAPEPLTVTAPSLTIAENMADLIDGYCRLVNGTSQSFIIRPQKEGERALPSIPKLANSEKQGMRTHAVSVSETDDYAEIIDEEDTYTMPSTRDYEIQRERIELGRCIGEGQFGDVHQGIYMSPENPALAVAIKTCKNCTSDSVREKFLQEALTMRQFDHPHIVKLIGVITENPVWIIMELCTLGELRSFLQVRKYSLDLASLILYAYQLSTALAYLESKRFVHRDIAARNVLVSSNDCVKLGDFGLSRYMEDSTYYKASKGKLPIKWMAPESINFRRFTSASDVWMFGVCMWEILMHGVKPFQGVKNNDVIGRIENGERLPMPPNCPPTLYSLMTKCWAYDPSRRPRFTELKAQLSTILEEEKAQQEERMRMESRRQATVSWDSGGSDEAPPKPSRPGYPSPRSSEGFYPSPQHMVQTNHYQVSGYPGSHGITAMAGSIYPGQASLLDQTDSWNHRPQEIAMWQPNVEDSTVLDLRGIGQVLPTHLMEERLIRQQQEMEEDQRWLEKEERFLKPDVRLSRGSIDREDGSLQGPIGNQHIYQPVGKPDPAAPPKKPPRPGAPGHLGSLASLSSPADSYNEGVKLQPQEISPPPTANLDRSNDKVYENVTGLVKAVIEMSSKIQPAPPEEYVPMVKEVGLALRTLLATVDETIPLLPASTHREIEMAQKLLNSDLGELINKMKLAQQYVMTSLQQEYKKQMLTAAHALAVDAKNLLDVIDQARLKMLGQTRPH
Effect on: enzyme activity
Action: inhibitor
Concentration: 0.5 µM
Reference: control
Compound	remaining activity
NC(=O)c1ccc(-c2nc(-c3ccc4c(c3)OCCO4)c(-c3ccccn3)[nH]2)cc1	103%
O=c1c(-c2ccc(F)cc2)c(-c2ccncc2)[nH]n1-c1ccc(Cl)cc1	95.1%
CCCCc1c(-c2ccc(O)cc2)[nH]c2nccnc12	83.1%
Clc1ccc(Nc2nnc(Cc3ccncc3)c3ccccc23)cc1	101%
O=C(O)/C=C/c1cc(Br)c(Br)c(Br)c1Br	94%
N#C/C(=C(/N)SC1C=CC=CC1)c1cccc(C(O)c2ccncc2)c1 (stereo not drawn)	96.5%
c1cc(-c2cnn3cc(-c4ccc(OCCN5CCCCC5)cc4)cnc23)ccn1	110%
O=Nc1c(-c2c(O)[nH]c3ccccc23)[nH]c2ccccc12	65.8%
CCN(CC)CCCCN1c2ccccc2Oc2ccc(Cl)cc21	108%
CC(C)n1cnc2c(Nc3cccc(Cl)c3)nc(NCCO)nc21	68.9%

Single results of other studies
Molecule	target	assay	test system	conditions	scale	measurement	result
PhoQ, residues 284 288 289 292 302 303 NLCILV	PhoP, residues 12 14 15 18 19 NHFIF (Escherichia coli, UniProt P23836)	Sort-seq, refers to: YFP reporter	E. coli	PhoQ-PhoP variant library, together with: 10 µM Mg2+	reference: high Mg2+ state, higher = stronger signaling	fold induction	4.17
